Published values pooled from the literature.
Organism: Enterococcus faecium

For CN[C@H](CC(C)C)C(=O)N[C@H]1C(=O)N[C@@H](CC(N)=O)C(=O)N[C@H]2C(=O)N[C@H]3C(=O)N[C@H](C(=O)N[C@H](C(=O)O)c4cc(O)cc(O)c4-c4cc3ccc4O)[C@H](O)c3ccc(c(Cl)c3)Oc3cc2cc(c3O[C@@H]2O[C@H](CO)[C@@H](O)[C@H](O)[C@H]2O[C@H]2C[C@](C)(N)[C@H](O)[C@H](C)O2)Oc2ccc(cc2Cl)[C@H]1O, the MIC was 4 µg/mL (strain -30, vancomycin-intermediate).
For CC(=O)NC[C@H]1CN(c2ccc(N3CCOCC3)c(F)c2)C(=O)O1, the MIC was 2.96 µM (NR-32053).
The MIC of C/C=C(\C)c1cc(OC(=O)c2c(C)c(Cl)c(O)c(Cl)c2O)c(C)c(O)c1C(=O)O is reported as > 64 µg/mL (broth microdilution; 36711).
With CC(=O)NC[C@H]1CN(c2ccc(N3CCOCC3)c(F)c2)C(=O)O1 the MIC was 4 µg/mL (-30, vancomycin-intermediate).
CCCCN(C(=O)Nc1cc(-c2ccc(Cl)c(Cl)c2)sc1C(=O)O)c1ccccc1 gave an MIC of 16 µM (DSM 20477; with: folic acid 10 µg/mL).
With O=C(O)c1cn(C2CC2)c2cc(N3CCNCC3)c(F)cc2c1=O the MIC was 0.125 µg/mL (broth microdilution).
With N#Cc1ccc2[nH]c(CNCC34CC5CC(CC(C5)C3)C4)nc2c1 the MIC was 64 µg/mL (ATCC 19434).
For Cn1c(SCc2ccc(Cl)cc2)nnc1-c1cncc(C#Cc2ccccc2)c1, the MIC was ≥ 20 µg/mL (vancomycin-resistant; no activity at value).
c1ccc(OCCn2c(CNC34CC5CC(CC(C5)C3)C4)nc3ccccc32)cc1 has an MIC of > 128 µg/mL (ATCC 19434).
The MIC of CN[C@H](CC(C)C)C(=O)N[C@H]1C(=O)N[C@@H](CC(N)=O)C(=O)N[C@H]2C(=O)N[C@H]3C(=O)N[C@H](C(=O)N[C@H](C(=O)O)c4cc(O)cc(O)c4-c4cc3ccc4O)[C@H](O)c3ccc(c(Cl)c3)Oc3cc2cc(c3O[C@@H]2O[C@H](CO)[C@@H](O)[C@H](O)[C@H]2O[C@H]2C[C@](C)(N)[C@H](O)[C@H](C)O2)Oc2ccc(cc2Cl)[C@H]1O is reported as 0.68 µg/mL (Enterococcus faecalis; 40 strains).
With CCCCCCC#Cc1cncc(-c2nnc(SCc3ccc(C#N)cc3)n2C)c1 the MIC was ≥ 20 µg/mL (vancomycin-resistant; no activity at value).
The MIC of CC(C)(CN)CNCc1nc2ccccc2n1CCOc1ccccc1 is reported as 16 µg/mL (ATCC 19434).
With C/C=C(\C)c1cc(O)c(C)c(OC(=O)c2c(C)c(Cl)c(O)c(Cl)c2O)c1 the MIC was 8 µg/mL (broth microdilution; 36235).
With c1ccc(OCCn2c(CNCC34CC5CC(CC(C5)C3)C4)nc3ccccc32)cc1 the MIC was > 128 µg/mL (ATCC 19434).
The MIC of C/C=C(\C)c1cc(O)c(C)c(OC(=O)c2c(C)cc(O)c(Cl)c2O)c1 is reported as 16 µg/mL (broth microdilution; 35682).
With Cc1ccc(CCC(=O)Nc2nnc(S(N)(=O)=O)s2)cc1 the MIC was 0.184 µM (NR-31912).
CC1(C)S[C@@H]2[C@H](NC(=O)[C@H](N)c3ccccc3)C(=O)N2[C@H]1C(=O)O gave an MIC of > 64 µg/mL (broth microdilution; 36235).
C[N+](C)(C)CCCN gave an MIC of > 800 µg/mL (VanA VRE ATCC BAA-2317; with: LTA 100 µg/mL).
For CCCCCCC#Cc1cncc(-c2nnc(SCc3ccc([N+](=O)[O-])o3)n2C)c1, the MIC was ≥ 20 µg/mL (vancomycin-resistant; no activity at value).
For C/C=C(\C)c1cc(OC(=O)c2c(O)c(C)c(O)c(Cl)c2/C(C)=C/C)c(C)c(O)c1C(=O)O, the MIC was > 64 µg/mL (broth microdilution; 35682).
The MIC of CCCCCCC#Cc1cncc(-c2nnc(SCc3ccc(Cl)cc3)n2C)c1 is reported as ≥ 20 µg/mL (vancomycin-resistant; no activity at value).
With CN[C@H](CC(C)C)C(=O)N[C@H]1C(=O)N[C@@H](CC(N)=O)C(=O)N[C@H]2C(=O)N[C@H]3C(=O)N[C@H](C(=O)N[C@H](C(=O)O)c4cc(O)cc(O)c4-c4cc3ccc4O)[C@H](O)c3ccc(c(Cl)c3)Oc3cc2cc(c3O[C@@H]2O[C@H](CO)[C@@H](O)[C@H](O)[C@H]2O[C@H]2C[C@](C)(N)[C@H](O)[C@H](C)O2)Oc2ccc(cc2Cl)[C@H]1O the MIC was > 64 µg/mL (broth microdilution; 36711).
